{"data": "Assay results from different studies", "T1": "i-motif DNA hif-1α promoter (Homo sapiens); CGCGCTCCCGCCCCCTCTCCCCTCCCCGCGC", "note": "Each line is one published result; not all experiments were run side by side. ± marks the error that the study gave."}
{"SMILES": "CCN(CC)C(=O)C1CCCN(C(=O)Nc2ccc3nc(-c4ccco4)c(-c4ccco4)nc3c2)C1 (stereo not drawn)", "target": "PPIA (Homo sapiens, UniProt P62937)", "test": "binding, surface plasmon resonance", "setting": "25 °C", "quantity": "kon", "value": "203 ± 17.9 M⁻¹ s⁻¹"}
{"SMILES": "CN(C1COC1)C(C)(C)/C=C(\\C#N)C(=O)N1CCC[C@H]1Cn1nc(-c2ccc(Oc3ccccc3)cc2F)c2c(N)ncnc21", "target": "BTK (Homo sapiens, UniProt Q06187)", "test": "AlphaScreen", "test system": "Ramos", "setting": "1 µM, 18 h after washout", "quantity": "target occupancy", "value": "59 ± 17%"}
{"SMILES": "O=C(CCCC[C@@H]1SC[C@@H]2NC(=O)N[C@@H]21)NCCCNC(=O)Cn1nc(-c2ccccc2)c2c(Cl)c(-c3ccccc3)nnc21", "target": "HSP90AB1 (Homo sapiens, UniProt P08238)", "test": "affinity purification mass spectrometry", "setting": "10 µM, unit not given", "scale": "reference: competitor-blocked control", "quantity": "enrichment", "value": 10}
{"SMILES": "O=C1CCc2ccc(OCCCCN3CCN(c4cccc5c4ccn5Cc4ccccc4)CC3)cc2N1", "target": "DRD2 (Homo sapiens, UniProt P14416)", "test system": "human cells", "setting": "concentration not given", "quantity": "activity", "value": "inactive"}
{"SMILES": "CNc1ccccc1C(=O)O[C@H]1C[C@H](n2cnc3c(N)ncnc32)O[C@@H]1COP(=O)(O)OP(=O)(O)O", "target": "Unconventional myosin-Va (Gallus gallus, UniProt Q02440, D297C/G292C/I296C/S293C/V295G)", "test": "stopped-flow FRET", "test system": "compound complex", "setting": "4 °C, with: 2 mM MgCl2", "quantity": "FRET efficiency", "value": "0.96 ± 0.04"}
{"SMILES": "COC(=O)c1ccc(CNC(=O)[C@@H]2C[C@@H](O)CN2C(=O)Cc2cc(C)no2)cc1", "target": "von Hippel-Lindau disease tumor suppressor, with Elongin B/C (VHL, Homo sapiens, UniProt P40337)", "test": "isothermal titration calorimetry", "setting": "concentration not given, 25 °C", "quantity": "binding enthalpy (ΔH)", "value": "-9.99 ± 0.22 kcal/mol"}
{"SMILES": "COc1cc(C2C(NC(=O)c3ccc(NC(=O)OC(C)(C)C)cc3)(C(=O)O)C(c3ccc(OC(=O)c4cccs4)c(OC)c3)C2(NC(=O)c2ccc(NC(=O)OC(C)(C)C)cc2)C(=O)O)ccc1OC(=O)c1cccs1 (stereo not drawn)", "target": "GLP-1 receptor, N-terminal helix or ECD truncated, human", "test": "agonist", "test system": "cell-based", "setting": "concentration not given", "quantity": "cAMP production", "value": "inhibited"}
{"SMILES": "CCOCCNC(=O)N1CCC[C@H](c2n[nH]c(-c3ccccc3)n2)C1", "target": "Aromatase (CYP19A1, Homo sapiens, UniProt P11511)", "test": "enzyme activity, inhibitor, MFC to HFC conversion", "setting": "5 µM, with: MFC substrate", "quantity": "apparent Vmax", "value": "0.68 pmol HFC/min/pmol P450"}
{"SMILES": "COc1ccc(-c2nc(Nc3nc4ccccc4o3)ncc2C#N)cc1", "target": "Grm5 (Rattus norvegicus, UniProt P31424)", "test": "calcium mobilization, negative allosteric modulator", "setting": "with: glutamate EC80", "scale": "reference: maximal glutamate response", "quantity": "maximal response", "value": "2.1 ± 0.3%"}
{"SMILES": "CC(C)(C)c1c[c-]c(-c2cncc(-c3[c-]cc(C(C)(C)C)cc3)n2)cc1.CN1[C]N(C)c2ccccc21.[Au+3]", "target": "T1, i-motif DNA hif-1α promoter (Homo sapiens)", "test": "FRET DNA melting", "setting": "20 µM, pH 7.2, NaCl 100 mM, upper bound", "quantity": "melting temperature shift", "value": "31 °C"}
{"SMILES": "CC[C@H](C)[C@H](NC(=O)[C@@H](NC(=O)[C@H](Cc1ccc(O)cc1)NC(=O)[C@H](C)NC(=O)[C@H](CC(N)=O)NC(=O)[C@H](CCC(=O)O)NC(=O)[C@H](Cc1ccccc1)NC(=O)[C@@H](NC(=O)[C@H](CO)NC(=O)[C@H](CCC(=O)O)NC(=O)[C@H](CCCCN)NC(=O)[C@H](Cc1ccccc1)NC(=O)[C@@H](N)CCCCN)C(C)C)C(C)C)C(=O)N[C@@H](Cc1ccc(O)cc1)C(=O)N[C@@H](CO)C(=O)N[C@@H](CO)C(=O)N[C@@H](CCSC)C(=O)N[C@@H](CC(C)C)C(=O)N[C@@H](Cc1ccc(O)cc1)C(=O)N[C@@H](CCCNC(=N)N)C(N)=O", "target": "Fibroblast growth factor 14 (Homo sapiens, UniProt Q92915)", "quantity": "koff", "value": "0.158 ± 0.0076 s⁻¹"}
{"SMILES": "CC1=C(C)C(Oc2c(F)cc3c(C)cc(=O)oc3c2F)OC1=O (racemic)", "target": "D14 (Arabidopsis thaliana, UniProt Q9SQR3)", "test": "enzyme activity, substrate, pre-steady-state kinetics", "quantity": "K1/2", "value": "1.19 µM"}
{"note": "Repeated from above:"}
{"SMILES": "O=C1CCc2ccc(OCCCCN3CCN(c4cccc5c4ccn5Cc4ccccc4)CC3)cc2N1", "target": "DRD2 (Homo sapiens, UniProt P14416)", "test system": "human cells", "setting": "concentration not given", "quantity": "activity", "value": "inactive"}
